Measured values of several laboratories.
Compare with care: the assays were run in different laboratories. Values joined by “and” are separate records of one study, mostly repeats; a detail may differ. ± marks the error that the study gave.

COC(=O)C[C@](O)(CCCC(C)(C)OC(C)=O)C(=O)O[C@@H]1C(OC)=C[C@]23CCCN2CCc2cc4c(cc2[C@H]13)OCO4  tissue concentration (CD1 mouse, lung; oral, 1 mg/kg, 8 h, below quantification limit 1.00 ng/mL): not detected
CC(C)(CCCC/C=C/CCCCCC(C)(C)C(=O)O)C(=O)O  plasma protein binding (dogs plasma): > 99.8%
CCC(C)C(=O)OC1C2C3(C)CCC(OC4CC(OC)C(OC5OC(C)C(O)C(OC)C5O)C(C)O4)CC3CCC23OC32CCC(C(C)=O)C2(C)C1OC(C)=O (stereo not drawn)  efflux ratio (Caco-2; 10 µM): 1.01
CC[C@H](C)C(=O)N1CCC(NC(=O)Nc2ccc(OC(F)(F)F)c(F)c2)CC1  participants with any Moderate TEAE (healthy volunteers, both sexes; oral, 8 mg single dose, fasted state): 0%
CCCC(CCC)C(=O)OC1O[C@@H]2O[C@@]3(C)CC[C@H]4[C@H](C)CCC([C@H]1C)[C@@]24OO3 (stereo partly drawn)  dead embryos (Tg(fli1:EGFP) zebrafish embryos; 5.0 µg/mL, up to 48 hpf): 9 count
C=C(CC)C(=O)c1ccc(OCC(=O)NCCNC(=O)COc2ccc(C(=O)C(=C)CC)c(Cl)c2Cl)c(Cl)c1Cl  toxicity (nude mouse; groin injection, 1.7 µg/g, two weeks, body weight, organ pathology): not toxic
CCCCCCCCCCCCCCC(=O)O.O=C1CCCC2C3CCCN4CCCC(CN12)C34 (stereo not drawn)  log octanol-water partition coefficient (shake-flask; ultrapure water; pH 7.0, 25 °C): 0.46
CC[C@H](C)CCCCC(=O)N[C@@H](CCN)C(=O)N[C@H](C(=O)N[C@@H](CCN)C(=O)N[C@H]1CCNC(=O)[C@H]([C@@H](C)O)NC(=O)[C@H](CCN)NC(=O)[C@H](CCN)NC(=O)[C@H](CC(C)C)NC(=O)[C@@H](Cc2ccccc2)NC(=O)[C@H](CCN)NC1=O)[C@@H](C)O  zeta potential (pH 6.0): 10.4 mV
CC(C)C[C@H](NC(=O)[C@H](CCCCN)NC(=O)[C@H](CCC(=O)O)NC(=O)[C@H](C)NC(=O)[C@@H](NC(=O)[C@H](CCCCN)NC(=O)[C@H](CC(=O)O)NC(=O)[C@H](Cc1ccc(O)cc1)NC(=O)[C@H](Cc1ccccc1)NC(=O)[C@H](C)NC(=O)[C@H](CCCCN)NC(=O)[C@H](CC(C)C)NC(=O)[C@H](Cc1c[nH]c2ccccc12)NC(=O)[C@@H](N)CC(=O)O)C(C)C)C(=O)N[C@@H](CCCCN)C(=O)N[C@@H](CCC(=O)O)C(=O)N[C@@H](C)C(=O)N[C@@H](Cc1ccccc1)C(=O)N1CCC[C@H]1C(=O)N[C@@H](CC(=O)O)C(=O)N[C@@H](Cc1c[nH]c2ccccc12)C(=O)N[C@@H](C)C(=O)N[C@@H](CCCCN)C(=O)N[C@@H](C)C(=O)N[C@@H](C)C(=O)N[C@@H](Cc1ccc(O)cc1)C(=O)N[C@@H](CC(=O)O)C(=O)N[C@@H](CCCCN)C(=O)N[C@@H](C)C(=O)N[C@@H](C)C(=O)N[C@@H](CCC(=O)O)C(=O)N[C@@H](CCCCN)C(=O)N[C@@H](C)C(=O)N[C@@H](CCCCN)C(=O)N[C@@H](CCC(=O)O)C(=O)N[C@@H](C)C(=O)N[C@@H](C)C(=O)O  half-life (cynomolgus monkey male, plasma; intravenous infusion, 8 mg/kg, day 1, 30 min infusion): 3.8 h
NC(=O)[C@@H](CCCCNC(=O)CNC(=O)CCC(=O)NCCc1c[nH]cn1)NC(=O)[C@@H](Cc1ccc(O)cc1)NC(=O)[C@@H](CCCCNC(=O)CNC(=O)CCC(=O)NCCc1c[nH]cn1)NC(=O)Cc1ccc(CN2CCN(CC(=O)O)CCN(CC(=O)O)CC2)cc1 [fluorine-18 labelled]  tissue ratio (tumour-bearing nude mice; intravenous, 3 h, TF2 pretargeting; baseline: tumour over blood): 1240 ± 490
CC1=CC=c2ccc3c4c2[N]1[Re](=[C]=O)(=[C]=O)(=[C]=O)([C]#[N+]c1ccc(Cl)cc1)[N]4C(C)=CC=3.O=S(=O)([O-])C(F)(F)F  luminescence lifetime (PBS; pH 7.4, nitrogen-saturated): 5.6 µs
CC[C@H](C)[C@H](NC(=O)[C@H](CC(=O)O)NC(=O)[C@H](CO)NC(=O)[C@H](CCC(N)=O)NC(=O)[C@H](C)NC(=O)[C@H](CC(=O)O)NC(=O)[C@H](CCC(=O)O)NC(=O)[C@H](Cc1c[nH]cn1)NC(=O)[C@H](Cc1ccc(O)cc1)NC(=O)[C@H](C)NC(=O)[C@H](CC(=O)O)NC(=O)[C@H](CCC(=O)O)NC(=O)[C@H](Cc1c[nH]cn1)NC(=O)[C@H](Cc1ccc(O)cc1)NC(=O)[C@H](C)NC(=O)[C@H](CC(=O)O)NC(=O)[C@H](CCC(=O)O)NC(=O)[C@H](Cc1c[nH]cn1)NC(=O)[C@H](Cc1ccc(O)cc1)NC(=O)[C@H](C)NC(=O)[C@H](CC(=O)O)NC(=O)[C@H](CCC(=O)O)NC(=O)[C@H](Cc1c[nH]cn1)NC(=O)[C@H](Cc1ccc(O)cc1)NC(=O)[C@H](C)NC(=O)[C@H](CC(=O)O)NC(=O)[C@H](CCC(=O)O)NC(=O)[C@H](Cc1c[nH]cn1)NC(=O)[C@@H](N)Cc1ccc(O)cc1)C(=O)N[C@H](C(=O)N[C@@H](C)C(=O)N[C@@H](Cc1c[nH]cn1)C(=O)N[C@@H](CC(C)C)C(=O)N[C@@H](CC(C)C)C(=O)O)C(C)C  MCV (mouse, SN model; dose not given): 48.4 ± 5.4 fL
COC(=O)C[C@H](NC(=O)[C@H](C)NC(=O)[C@@H](NC(=O)[C@H](CC(=O)OC)NC(=O)[C@@H](NC(=O)c1ccc2ccccc2n1)C(C)C)C(C)C)C(=O)COc1c(F)cccc1F  bicarbonate level (rat pups, arterial blood; 1 mg/kg, 1 h): 26.3 ± 0.76 mM
CC[C@H](C)[C@H](NC(=O)[C@H](Cc1c[nH]c2ccccc12)NC(=O)[C@H](CCCCN)NC(=O)[C@@H](NC(=O)[C@H](CC(C)C)NC(=O)[C@H](CCCCN)NC(=O)CNC(=O)[C@@H](NC(=O)[C@@H](NC(=O)[C@H](CO)NC(=O)[C@@H](NC(=O)[C@@H](NC(=O)[C@H](CCCCN)NC(=O)[C@H](CCC(N)=O)NC(=O)[C@H](C)NC(=O)[C@H](CCSC)NC=O)[C@@H](C)CC)[C@@H](C)CC)[C@@H](C)O)[C@@H](C)CC)C(C)C)C(=O)N[C@H](C(=O)N[C@@H](CCCCN)C(=O)N[C@H](C(=O)N[C@H](C(=O)N[C@@H](CC(N)=O)C(=O)N[C@@H](CCCCN)C(=O)N[C@@H](Cc1ccccc1)C(=O)N[C@H](C(=O)N[C@@H](CCCCN)C(=O)N[C@@H](CCCCN)C(=O)O)[C@@H](C)O)C(C)C)[C@@H](C)O)[C@@H](C)CC (racemic)  helicity (circular dichroism; phosphate buffer 10 mM; 1 to 5 µM, pH 7.5, approximate): ~20%
CC(C)[C@H](NC(=O)CNC(=O)[C@H](CCC(N)=O)NC(=O)[C@H](C)N)C(=O)O  subjects given concomitant medication (human; intravenous infusion, 90 mg/kg/h, 2 h infusion): 0%
CCCCCCCC(=O)NCCCC[C@H](NC(=O)[C@H](Cc1ccccc1)NC(=O)[C@@H](CCCNC(=N)N)NC(=O)[C@@H](N)Cc1ccc(O)cc1)C(N)=O  AUC(0-inf) (mouse, CD-1, male, brain; intravenous, 3 mg/kg): 105000 ng·min/g
O=C(NCCCCCn1ccc2ccccc21)Oc1ccccc1  parent remaining (porcine plasma; 20 µM, 30 min): 91 ± 7%
Cc1cccc(-c2cccc(C)n2)n1.[Cl-].[Cl-].[Ru+2].c1ccc(-c2ccccn2)nc1.c1ccc(-c2ccccn2)nc1  release from nanoassemblies (phosphate buffer with NaCl; pH 6.0, 37 °C, photoactivated, dialysis): 70%
C[C@@H]1CC[C@H]2[C@@H](C)CO[C@@H]3O[C@@]4(C)CC[C@@H]1[C@]32OO4  MRT(0-t) (male Sprague-Dawley rat, plasma; oral, 100 mg/kg): 5.36 h
COc1cc2c3c(c4cc(OC)c(OC)cc4c2cc1OC)CN1CCCCC1C3 (stereo not drawn)  Tmax (Sprague-Dawley rat, male; oral, dose not given): 1 h
CCOP(=O)(OCC)OCCCCOC(=O)CC1=C(C)/C(=C/c2ccc([S+](C)[O-])cc2)c2ccc(F)cc21 (stereo not drawn)  AUC(0-24 h) (rat, muscle; topical, dose not given): > 4 µmol·h/g
C[C@]12CC[C@H](O)CC1CCC1C2[C@H](O)C(=O)[C@]2(C)[C@@H](c3ccc(=O)oc3)CC[C@]12O (stereo partly drawn)  CLint (sulfation, substrate; rat liver cytosol; pH 7.4): 0.14 µL/min/mg
CC[C@H](C)[C@H](NC(=O)[C@H](Cc1ccccc1)NC(=O)[C@H](CC(=O)O)NC(=O)[C@H](CCN)NC(=O)[C@H](Cc1ccccc1)NC(=O)[C@H](Cc1ccccc1)NC(=O)[C@H](CCCCN)NC(=O)[C@H](CCCN)NC(=O)[C@H](CC(C)C)NC(=O)[C@H](CCCNC(=N)N)NC(=O)[C@H](CCSC)NC(=O)[C@H](C)N)C(=O)N[C@@H](CC(C)C)C(=O)N[C@@H](CCC(N)=O)C(=O)N[C@@H](CCCNC(=N)N)C(=O)N[C@@H](CCCCN)C(=O)N[C@@H](CCCCN)C(=O)O  helicity (circular dichroism; 20% TFE in PBS; 200 µM, pH 7.4, 25 °C): 17.9%
CC(C)(O)c1ccccc1CC[C@H](c1cccc(/C=C/c2ccc3ccc(Cl)cc3n2)c1)S(=O)(=O)CC1(CC(=O)O)CC1  percent metabolized (human liver microsomes; 1 µM, 30 min, 0.5 mg/mL protein): 72.1%
COc1cc2ncnc(Oc3cccc(N[11C](=O)Nc4cc(C(C)(C)C(F)(F)F)on4)c3)c2cc1OC  radioactivity (female Balb/c nude mice, urine; intravenous, dose not given, 5 min): 1.59 ± 0.43 %ID/g
CC[C@@H](C)[C@@H](NC(=O)[C@@H](C)NC(=O)[C@H](NC(=O)[C@@H](CC(=O)O)NC(=O)[C@@H](CCCCN)NC(=O)[C@@H](CO)NC(=O)[C@H](NC(=O)[C@@H](CC(N)=O)NC(=O)[C@@H](C)NC(=O)[C@H](NC(=O)[C@@H](CCC(=O)O)NC(=O)[C@@H](CCCCN)NC(=O)[C@H](NC(=O)[C@H](NC(=O)[C@@H](Cc1c[nH]cn1)NC(=O)[C@@H](CCCCN)NC(=O)[C@H](NC(=O)[C@@H](CCCCN)NC(=O)[C@@H](CCCCN)NC(=O)[C@H](NC(=O)[C@@H](CC(C)C)NC(=O)[C@@H](CCCCN)NC(=O)[C@@H](CC(N)=O)NC(=O)[C@@H](Cc1ccccc1)NC(=O)[C@@H](CCCNC(=N)N)NC(=O)[C@@H](CCCCN)NC(=O)[C@@H](CCCNC(=N)N)NC(=O)[C@@H](Cc1ccccc1)NC(=O)CN)C(C)C)C(C)C)[C@H](C)O)[C@H](C)CC)[C@H](C)O)C(C)C)C(C)C)C(=O)N[C@@H](C(=O)N[C@H](C)C(=O)NCC(=O)N[C@H](CO)C(=O)NCC(=O)N[C@@H](C(=O)N[C@H](C)C(=O)N[C@@H](C(=O)NCC(=O)N[C@H](C)C(=O)N[C@H](C)C(=O)N[C@H](CCSC)C(N)=O)C(C)C)C(C)C)C(C)C  minimal haemolytic concentration (human erythrocytes): > 1020 mg/L
CN[C@](C)(C[18F])C(=O)O  tracer uptake (mouse, muscle; 30 min, tumour-bearing): 1.4 %ID/g
N=C(N)Nc1ccc(-c2nc3ccc(-c4ccc5nc(-c6ccc(NC(=N)N)cc6)[nH]c5c4)cc3[nH]2)cc1  tolerability (HSA-LR mouse; intraperitoneal, 40 mg/kg daily, 7 days): not toxic
COc1cc(NC(=O)C(=O)c2c(C)n(Cc3ccc(Cl)cc3)c3ccc(C)cc23)ccn1  t1/2 (cynomolgus monkey, female, plasma; intravenous, 1 mg/kg): 28.2 h and 36.7 h and 31.4 h and 18.1 h and 28.3 h
COc1ccc(C2=Nn3c(NN=C4C(=O)N(Cc5ccccc5)c5ccc(Cl)cc54)nnc3SC2)cc1  toxicity (chick embryo, chorioallantoic membrane; 40 µM): toxic

For quick reference, copied from above:
C[C@]12CC[C@H](O)CC1CCC1C2[C@H](O)C(=O)[C@]2(C)[C@@H](c3ccc(=O)oc3)CC[C@]12O (stereo partly drawn)  CLint (sulfation, substrate; rat liver cytosol; pH 7.4): 0.14 µL/min/mg
CCCCCCCC(=O)NCCCC[C@H](NC(=O)[C@H](Cc1ccccc1)NC(=O)[C@@H](CCCNC(=N)N)NC(=O)[C@@H](N)Cc1ccc(O)cc1)C(N)=O  AUC(0-inf) (mouse, CD-1, male, brain; intravenous, 3 mg/kg): 105000 ng·min/g
COC(=O)C[C@](O)(CCCC(C)(C)OC(C)=O)C(=O)O[C@@H]1C(OC)=C[C@]23CCCN2CCc2cc4c(cc2[C@H]13)OCO4  tissue concentration (CD1 mouse, lung; oral, 1 mg/kg, 8 h, below quantification limit 1.00 ng/mL): not detected
